Measured values from different studies.
Numbered parts are unrelated; each lists some results of a single study.
Sequence of UniProt Q12866 (whole entry, looked up): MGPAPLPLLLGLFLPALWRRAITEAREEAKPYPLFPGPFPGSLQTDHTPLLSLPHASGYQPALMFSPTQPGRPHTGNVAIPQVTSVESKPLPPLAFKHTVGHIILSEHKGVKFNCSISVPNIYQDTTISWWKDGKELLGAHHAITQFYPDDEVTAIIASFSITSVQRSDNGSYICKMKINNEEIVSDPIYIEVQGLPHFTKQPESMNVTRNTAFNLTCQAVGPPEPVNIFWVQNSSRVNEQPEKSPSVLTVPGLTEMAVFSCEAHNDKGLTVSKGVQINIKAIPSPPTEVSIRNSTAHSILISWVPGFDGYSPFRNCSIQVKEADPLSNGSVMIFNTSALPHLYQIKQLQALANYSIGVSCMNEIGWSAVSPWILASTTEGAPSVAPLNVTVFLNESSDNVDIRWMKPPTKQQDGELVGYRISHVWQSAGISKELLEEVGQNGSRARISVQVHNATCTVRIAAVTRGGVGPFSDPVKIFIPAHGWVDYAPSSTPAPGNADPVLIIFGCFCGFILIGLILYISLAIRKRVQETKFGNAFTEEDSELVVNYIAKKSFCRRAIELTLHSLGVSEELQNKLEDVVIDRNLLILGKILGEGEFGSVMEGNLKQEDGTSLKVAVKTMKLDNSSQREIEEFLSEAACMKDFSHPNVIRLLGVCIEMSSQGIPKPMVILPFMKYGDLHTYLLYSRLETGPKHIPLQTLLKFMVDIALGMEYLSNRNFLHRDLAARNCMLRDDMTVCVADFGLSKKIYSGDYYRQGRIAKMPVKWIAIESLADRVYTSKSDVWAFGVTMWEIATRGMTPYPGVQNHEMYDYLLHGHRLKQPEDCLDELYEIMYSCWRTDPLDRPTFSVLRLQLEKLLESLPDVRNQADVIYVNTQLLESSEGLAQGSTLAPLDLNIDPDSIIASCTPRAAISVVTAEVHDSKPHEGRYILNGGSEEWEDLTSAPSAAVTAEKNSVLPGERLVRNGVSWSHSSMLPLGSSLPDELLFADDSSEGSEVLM
Sequence of UniProt P42679 (whole entry, looked up): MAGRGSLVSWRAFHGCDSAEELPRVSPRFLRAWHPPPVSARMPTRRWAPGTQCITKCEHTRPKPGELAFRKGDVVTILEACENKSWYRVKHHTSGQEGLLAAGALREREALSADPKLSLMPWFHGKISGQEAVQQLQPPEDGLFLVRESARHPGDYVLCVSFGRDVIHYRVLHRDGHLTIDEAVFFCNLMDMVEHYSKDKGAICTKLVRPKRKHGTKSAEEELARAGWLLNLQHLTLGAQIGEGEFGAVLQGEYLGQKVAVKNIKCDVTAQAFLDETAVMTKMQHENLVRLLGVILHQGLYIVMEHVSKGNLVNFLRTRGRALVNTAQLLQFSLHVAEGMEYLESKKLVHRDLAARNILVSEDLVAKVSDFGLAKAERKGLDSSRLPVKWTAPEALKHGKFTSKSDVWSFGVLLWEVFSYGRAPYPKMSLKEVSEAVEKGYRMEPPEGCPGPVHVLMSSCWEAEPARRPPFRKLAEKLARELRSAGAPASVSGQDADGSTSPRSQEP
Sequence of UniProt Q16659 (whole entry, looked up): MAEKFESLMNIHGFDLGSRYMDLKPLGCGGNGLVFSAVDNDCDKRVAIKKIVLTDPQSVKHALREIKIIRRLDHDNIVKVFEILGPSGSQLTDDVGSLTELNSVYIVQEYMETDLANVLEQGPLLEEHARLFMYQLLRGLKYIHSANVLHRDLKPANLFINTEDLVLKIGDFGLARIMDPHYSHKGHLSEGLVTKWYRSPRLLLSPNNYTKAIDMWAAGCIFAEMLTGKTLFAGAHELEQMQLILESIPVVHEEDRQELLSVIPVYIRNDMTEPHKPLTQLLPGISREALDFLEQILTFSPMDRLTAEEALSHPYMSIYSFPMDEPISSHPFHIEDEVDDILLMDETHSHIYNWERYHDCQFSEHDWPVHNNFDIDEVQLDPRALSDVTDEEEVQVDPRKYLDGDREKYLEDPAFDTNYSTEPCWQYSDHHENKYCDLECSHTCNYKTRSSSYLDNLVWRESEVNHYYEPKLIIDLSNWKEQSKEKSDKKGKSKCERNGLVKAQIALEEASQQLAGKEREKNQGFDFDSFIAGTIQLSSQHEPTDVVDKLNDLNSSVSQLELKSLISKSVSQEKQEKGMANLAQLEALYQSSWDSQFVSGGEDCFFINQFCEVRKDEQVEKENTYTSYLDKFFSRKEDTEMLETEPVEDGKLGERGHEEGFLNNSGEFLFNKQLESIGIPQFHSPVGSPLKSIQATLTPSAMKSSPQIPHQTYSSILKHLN
Sequence of UniProt P27361 (whole entry, looked up): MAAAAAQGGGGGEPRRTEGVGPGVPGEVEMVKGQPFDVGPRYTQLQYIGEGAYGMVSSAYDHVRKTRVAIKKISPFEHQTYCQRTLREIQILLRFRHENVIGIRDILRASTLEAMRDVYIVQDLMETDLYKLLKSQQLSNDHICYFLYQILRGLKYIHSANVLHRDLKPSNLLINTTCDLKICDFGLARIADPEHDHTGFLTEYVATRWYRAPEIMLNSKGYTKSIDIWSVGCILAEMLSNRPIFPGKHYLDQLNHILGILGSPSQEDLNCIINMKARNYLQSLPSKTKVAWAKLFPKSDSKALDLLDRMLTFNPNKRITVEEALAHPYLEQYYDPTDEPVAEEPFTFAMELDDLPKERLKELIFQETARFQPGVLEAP
Sequence of UniProt Q9Y6E0 (whole entry, looked up): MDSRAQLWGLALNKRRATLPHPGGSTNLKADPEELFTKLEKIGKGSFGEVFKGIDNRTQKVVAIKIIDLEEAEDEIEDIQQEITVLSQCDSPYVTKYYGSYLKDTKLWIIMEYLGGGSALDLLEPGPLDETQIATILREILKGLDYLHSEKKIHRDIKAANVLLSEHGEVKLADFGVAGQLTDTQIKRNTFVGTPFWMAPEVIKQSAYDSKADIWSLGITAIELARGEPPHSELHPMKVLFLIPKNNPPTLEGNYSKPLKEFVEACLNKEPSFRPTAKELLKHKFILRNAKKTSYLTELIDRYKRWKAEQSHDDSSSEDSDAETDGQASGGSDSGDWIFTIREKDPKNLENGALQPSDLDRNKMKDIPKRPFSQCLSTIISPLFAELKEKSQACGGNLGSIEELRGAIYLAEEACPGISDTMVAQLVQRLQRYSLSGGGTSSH
Sequence of UniProt Q13882 (whole entry, looked up): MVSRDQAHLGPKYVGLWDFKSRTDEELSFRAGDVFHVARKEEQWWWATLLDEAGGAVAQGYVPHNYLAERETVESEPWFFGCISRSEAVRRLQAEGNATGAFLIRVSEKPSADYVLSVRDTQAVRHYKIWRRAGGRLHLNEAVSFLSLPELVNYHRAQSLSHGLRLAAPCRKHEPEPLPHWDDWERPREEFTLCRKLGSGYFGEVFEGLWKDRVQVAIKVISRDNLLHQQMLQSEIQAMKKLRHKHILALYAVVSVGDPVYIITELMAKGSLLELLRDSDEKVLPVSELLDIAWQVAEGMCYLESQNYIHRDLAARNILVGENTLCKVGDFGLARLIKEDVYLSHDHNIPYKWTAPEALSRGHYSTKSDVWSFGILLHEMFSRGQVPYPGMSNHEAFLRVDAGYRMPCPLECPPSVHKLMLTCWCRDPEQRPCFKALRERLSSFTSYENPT
Sequence of UniProt P42336 (whole entry, unmodified, looked up): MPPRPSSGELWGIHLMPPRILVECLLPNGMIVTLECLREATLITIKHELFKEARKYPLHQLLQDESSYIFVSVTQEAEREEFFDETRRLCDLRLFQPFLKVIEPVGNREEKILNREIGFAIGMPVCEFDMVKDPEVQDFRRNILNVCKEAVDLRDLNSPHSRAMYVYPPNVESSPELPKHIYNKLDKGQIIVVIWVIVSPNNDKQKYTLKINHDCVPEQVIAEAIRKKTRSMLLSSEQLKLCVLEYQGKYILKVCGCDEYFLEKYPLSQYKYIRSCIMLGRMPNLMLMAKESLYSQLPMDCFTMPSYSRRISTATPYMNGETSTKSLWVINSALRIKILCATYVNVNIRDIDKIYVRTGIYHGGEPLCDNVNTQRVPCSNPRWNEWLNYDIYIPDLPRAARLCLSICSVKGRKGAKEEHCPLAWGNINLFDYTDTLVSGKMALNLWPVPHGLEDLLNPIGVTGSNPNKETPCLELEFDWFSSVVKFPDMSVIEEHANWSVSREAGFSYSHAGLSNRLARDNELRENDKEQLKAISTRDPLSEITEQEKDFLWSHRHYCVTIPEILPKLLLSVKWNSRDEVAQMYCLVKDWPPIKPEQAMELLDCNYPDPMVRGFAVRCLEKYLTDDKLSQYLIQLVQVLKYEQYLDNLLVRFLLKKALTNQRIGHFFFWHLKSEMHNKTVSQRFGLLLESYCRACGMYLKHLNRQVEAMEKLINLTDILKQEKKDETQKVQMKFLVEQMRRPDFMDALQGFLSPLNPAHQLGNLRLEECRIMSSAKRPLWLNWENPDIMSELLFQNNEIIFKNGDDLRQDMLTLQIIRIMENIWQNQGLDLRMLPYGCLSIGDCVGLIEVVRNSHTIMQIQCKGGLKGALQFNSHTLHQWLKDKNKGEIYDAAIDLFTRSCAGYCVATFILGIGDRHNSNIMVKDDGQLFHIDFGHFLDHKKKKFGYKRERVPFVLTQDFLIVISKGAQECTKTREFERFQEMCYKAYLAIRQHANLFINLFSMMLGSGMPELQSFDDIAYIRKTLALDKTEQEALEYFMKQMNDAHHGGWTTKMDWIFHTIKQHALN

Sample 1 — host: mouse; medium: microsomes or S9; concentration: 2 µM; time: 0.5 h; quantity: remaining compound
CC(C)COc1ccc(Cc2cnc(N)nc2N)cc1: 5.34%
CCOc1cc(=O)n2c(c1C(=O)NCc1ccccn1)CCCCC2: 86.8%
N=c1c2c(-c3ccccc3)c(-c3ccccc3)n(Cc3ccccc3)c2ncn1CCO: 36.9%

Sample 2 — method: protein binding microarray; form: double-stranded DNA, one strand shown; medium: in vitro; concentration: not given; reference: not given; direction: higher = stronger binding; quantity: E-score
Target: Histone acetyltransferase KAT6A, winged helix 1, GST fusion (KAT6A, Homo sapiens, UniProt Q92794, residues 1-85)
Notes: 8-mer, flanks averaged, mean of 2 arrays, mostly near background
Target sequence (chain): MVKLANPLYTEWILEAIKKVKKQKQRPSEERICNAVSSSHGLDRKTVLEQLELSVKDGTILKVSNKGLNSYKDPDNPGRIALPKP
GAATCCAC: -0.0744
ACGATACC: 0.000205
GCATTTCC: 0.059
CAGCCCCA: -0.134
AACAGAAT: -0.187
TAACTTGA: -0.263
ATTCCGTC: 0.148
AACCACGA: -0.0856

Sample 3 — method: protein-binding microarray; form: double-stranded DNA, one strand shown; medium: in vitro; concentration: not given; direction: higher = stronger binding; quantity: E-score
Target: Hepatocyte nuclear factor 3-beta, forkhead domain (FOXA2, Homo sapiens, UniProt Q9Y261, residues 142-269)
Notes: k-mer, scored over probes, only values ≥0.25
Construct (chain): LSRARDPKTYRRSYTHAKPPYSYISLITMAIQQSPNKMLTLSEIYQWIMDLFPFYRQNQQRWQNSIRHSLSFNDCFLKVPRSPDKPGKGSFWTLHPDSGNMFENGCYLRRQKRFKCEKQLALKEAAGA
AATACCAT: 0.269
TAAAAACA: 0.276
ATCATGAT: 0.344
ACACTTTA: 0.285
ATGTATGC: 0.341
CTCATATA: 0.261
CCAATTTA: 0.267
ATTAGTTA: 0.309

Sample 4 — observed: cell-free assay; method: competition with immobilised ligand; concentration: 1 µM; quantity: remaining binding
SMILES: CN(C)CC#Cc1ccc(OCCCc2sc(N3CCc4cccc(C(=O)Nc5nc6ccccc6s5)c4C3)nc2C(=O)O)c(F)c1
Tyrosine-protein kinase receptor TYRO3 (TYRO3, Homo sapiens, UniProt Q06418): 94%
Serine/threonine-protein kinase 24 (STK24, Homo sapiens, UniProt Q9Y6E0): 93%
Mitogen-activated protein kinase 3 (MAPK3, Homo sapiens, UniProt P27361): 96%
Angiopoietin-1 receptor (TEK, Homo sapiens, UniProt Q02763): 100%
Tyrosine-protein kinase Mer (MERTK, Homo sapiens, UniProt Q12866): 100%
Megakaryocyte-associated tyrosine-protein kinase (MATK, Homo sapiens, UniProt P42679): 96%
Mitogen-activated protein kinase kinase kinase 5 (MAP3K5, Homo sapiens, UniProt Q99683): 94%
Protein-tyrosine kinase 6 (PTK6, Homo sapiens, UniProt Q13882): 96%
Mitogen-activated protein kinase 6 (MAPK6, Homo sapiens, UniProt Q16659): 94%
Phosphatidylinositol 4,5-bisphosphate 3-kinase catalytic subunit alpha isoform (PIK3CA, Homo sapiens, UniProt P42336, E545K): 95%

Some of these lines once more (sample 2):
AACCACGA: -0.0856
ATTCCGTC: 0.148
